# Published values of several laboratories.
# Compare with care: the assays were run in different laboratories. ± marks the error that the study gave.
Compound,cell line,assay,conditions,IC50
C=CCc1ccc(OCc2nn(CN3CCOCC3)c(=S)o2)c(OC)c1,SK-OV-3,"cell growth or viability, MTT",72 h,1.84 µM
O=c1[nH]nc(O)c2c(-c3cccc(Cl)c3)c3n(c12)CCn1cccc1-3,PANC-1,"cell growth or viability, MTT",48 h,21.4 µM
COc1cc([C@@H]2c3cc4c(cc3[C@@H](O[C@@H]3O[C@@H]5CO[C@@H](C)O[C@H]5[C@H](O)[C@H]3O)[C@H]3COC(=O)[C@H]23)OCO4)cc(OC)c1O,HCT-15/ADM2-2,"cell growth, XTT",72 h,5.48 µg/mL
COc1ccc(N(C)c2nc(C)nc3c2CCC3)cc1,MDA-MB-435,"cell growth or viability, SRB",,0.007 µM
c1ccc([C@@H]2CCC[C@@H]2NC2=NCCCCCCCCCCC2)cc1,LAPC4,"AR transcriptional activity, antagonist, PSA promoter luciferase",24 h,4.41 µM
NC1=NN(c2ccc(Oc3ccccc3)c(S(=O)(=O)O)c2)C(=O)C1,AP-1-luc HEK293,"AP-1 luciferase reporter, inhibitor","24 h, with: serum 20%",~0.2 µM
COC(=O)c1c(-c2ccccc2F)c2n(c1C(=O)OC)CCn1cccc1-2,PANC-1,"cell growth or viability, MTT",48 h,72 µM
CN(C)c1ccc(-c2cc3ccccc3[nH]2)cc1,HEK293 NF-κB luciferase reporter,"reporter gene, measured: NF-κB","6 h, with: TNFα",1.5 ± 0.7 µM
Cn1nnc2c(C(N)=O)ncn2c1=O,GM12878,"cell proliferation, MTS","72 h, with: HNL 10 µM",126 µM
CC1CCN(Cc2cc(/C=C/C(=O)c3ccc(Cl)cc3)ccc2O)CC1,WRL68,"cell growth or viability, MTT",72 h,80.7 µM
COc1cc(OC)c(OC)cc1/C=C(\C(=O)c1cc(C)[nH]c(=O)c1C(=O)N1CCCCC1)c1cc(OC)c(OC)cc1OC,human primary dermal fibroblasts,"cell proliferation, MTT",72 h,> 10 µM
COc1cc(C(=O)c2oc3ccccc3c2NC(=O)CCl)cc(OC)c1OC,L1210,cell growth or viability,24 h,51.8 µM
CC(=O)c1cc2c(-c3ccccc3)cc(=O)oc2c(C)c1O,NIH3T3,hyaluronan secretion,72 h,42.5 ± 21.3 µM
O=C(NNC(=O)c1ccccc1O)c1cccnc1,PANC-1,cell growth or viability,72 h,> 10 µM
COc1cc(C(=O)c2sc3ccccc3c2N)cc(OC)c1OC,L1210,cell growth or viability,,0.66 µM
CCOP(=O)(OCC)[C@@H]1C[C@@H](Cn2c(=O)n(C(=O)c3ccc(F)cc3)c(=O)c3ccccc32)ON1C (relative stereo),CCRF-CEM,cell growth or viability,72 h,> 250 µM
CS(=O)(=O)CCNCc1ccc(-c2ccc3ncnc(Nc4ccc(OCc5cccc(F)c5)c(Cl)c4)c3c2)o1,SK-OV-3 (HER2-positive),"cell viability, MTT",72 h,7.98 µM
CC(=O)Nc1cccc(C(=O)Nc2ccc(Nc3nccc(-c4cccnc4)n3)c(C)c2)c1,SH-SY5Y MKK7-ACT,"c-Jun phosphorylation, inhibitor, HTRF, measured: phospho-c-Jun Ser63","6 h, with: doxycycline",6.79 ± 0.256 µM
CCCS(=O)(=O)Nc1ccc(F)c(C(=O)c2c[nH]c3ncc(Cl)cc23)c1F,UACC-62,"cell growth, IncuCyte confluence",,4.3 µM
C(=C\c1ccccc1)/c1ccccc1,CCRF-CEM,"cell growth or viability, ATP luminescence",24 h,109 µM
CC1(C)c2cc(CC(=O)c3ccc(O)cc3O)c(O)cc2OC1CO (centres unmarked),Hepa1c1c7,cell growth,,74.3 µM
COc1ccc(-c2cncc(N[C@@H](C)c3cccc(NC(=O)c4cncc(C)c4)c3)n2)cc1OC,human Fibroblast,"cell growth or viability, inhibitor",,0.029 µM
COc1ccc(C[C@H]2COC(=O)[C@@H]2Cc2ccc(OCc3cn(CC(=O)Nc4ccccc4N)nn3)c(OC)c2)cc1OC,CCRF-CEM,"cell growth or viability, CCK-8",48 h,> 5 µM
